Experimental data of several laboratories.
Parts stem from different laboratories: compare values within a part only.
UniProt P47898, sequence (whole entry, looked up): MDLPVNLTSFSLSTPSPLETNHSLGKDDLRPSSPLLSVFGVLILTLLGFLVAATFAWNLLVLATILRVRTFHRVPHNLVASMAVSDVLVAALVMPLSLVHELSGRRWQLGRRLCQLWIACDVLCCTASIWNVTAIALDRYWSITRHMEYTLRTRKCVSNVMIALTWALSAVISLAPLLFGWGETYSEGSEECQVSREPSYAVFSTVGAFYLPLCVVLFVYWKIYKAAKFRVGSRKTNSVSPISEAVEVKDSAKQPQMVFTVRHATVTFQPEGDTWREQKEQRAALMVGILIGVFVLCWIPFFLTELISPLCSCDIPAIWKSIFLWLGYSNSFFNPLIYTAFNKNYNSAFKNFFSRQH
UniProt O96017, sequence (whole entry, looked up): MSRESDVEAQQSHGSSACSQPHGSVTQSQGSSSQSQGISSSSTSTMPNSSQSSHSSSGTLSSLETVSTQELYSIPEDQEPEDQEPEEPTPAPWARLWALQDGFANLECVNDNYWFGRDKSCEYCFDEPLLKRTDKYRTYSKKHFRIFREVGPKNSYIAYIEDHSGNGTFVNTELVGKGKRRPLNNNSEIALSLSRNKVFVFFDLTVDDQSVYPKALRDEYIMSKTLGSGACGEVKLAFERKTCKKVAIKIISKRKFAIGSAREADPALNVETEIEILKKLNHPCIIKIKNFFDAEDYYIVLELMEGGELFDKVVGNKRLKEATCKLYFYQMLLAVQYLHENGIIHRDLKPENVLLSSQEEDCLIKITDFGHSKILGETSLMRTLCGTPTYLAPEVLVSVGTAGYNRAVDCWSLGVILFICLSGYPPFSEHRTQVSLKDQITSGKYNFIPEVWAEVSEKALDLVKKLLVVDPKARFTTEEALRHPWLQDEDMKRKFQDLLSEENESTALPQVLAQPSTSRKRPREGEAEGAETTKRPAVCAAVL
UniProt P08922, sequence (whole entry, looked up): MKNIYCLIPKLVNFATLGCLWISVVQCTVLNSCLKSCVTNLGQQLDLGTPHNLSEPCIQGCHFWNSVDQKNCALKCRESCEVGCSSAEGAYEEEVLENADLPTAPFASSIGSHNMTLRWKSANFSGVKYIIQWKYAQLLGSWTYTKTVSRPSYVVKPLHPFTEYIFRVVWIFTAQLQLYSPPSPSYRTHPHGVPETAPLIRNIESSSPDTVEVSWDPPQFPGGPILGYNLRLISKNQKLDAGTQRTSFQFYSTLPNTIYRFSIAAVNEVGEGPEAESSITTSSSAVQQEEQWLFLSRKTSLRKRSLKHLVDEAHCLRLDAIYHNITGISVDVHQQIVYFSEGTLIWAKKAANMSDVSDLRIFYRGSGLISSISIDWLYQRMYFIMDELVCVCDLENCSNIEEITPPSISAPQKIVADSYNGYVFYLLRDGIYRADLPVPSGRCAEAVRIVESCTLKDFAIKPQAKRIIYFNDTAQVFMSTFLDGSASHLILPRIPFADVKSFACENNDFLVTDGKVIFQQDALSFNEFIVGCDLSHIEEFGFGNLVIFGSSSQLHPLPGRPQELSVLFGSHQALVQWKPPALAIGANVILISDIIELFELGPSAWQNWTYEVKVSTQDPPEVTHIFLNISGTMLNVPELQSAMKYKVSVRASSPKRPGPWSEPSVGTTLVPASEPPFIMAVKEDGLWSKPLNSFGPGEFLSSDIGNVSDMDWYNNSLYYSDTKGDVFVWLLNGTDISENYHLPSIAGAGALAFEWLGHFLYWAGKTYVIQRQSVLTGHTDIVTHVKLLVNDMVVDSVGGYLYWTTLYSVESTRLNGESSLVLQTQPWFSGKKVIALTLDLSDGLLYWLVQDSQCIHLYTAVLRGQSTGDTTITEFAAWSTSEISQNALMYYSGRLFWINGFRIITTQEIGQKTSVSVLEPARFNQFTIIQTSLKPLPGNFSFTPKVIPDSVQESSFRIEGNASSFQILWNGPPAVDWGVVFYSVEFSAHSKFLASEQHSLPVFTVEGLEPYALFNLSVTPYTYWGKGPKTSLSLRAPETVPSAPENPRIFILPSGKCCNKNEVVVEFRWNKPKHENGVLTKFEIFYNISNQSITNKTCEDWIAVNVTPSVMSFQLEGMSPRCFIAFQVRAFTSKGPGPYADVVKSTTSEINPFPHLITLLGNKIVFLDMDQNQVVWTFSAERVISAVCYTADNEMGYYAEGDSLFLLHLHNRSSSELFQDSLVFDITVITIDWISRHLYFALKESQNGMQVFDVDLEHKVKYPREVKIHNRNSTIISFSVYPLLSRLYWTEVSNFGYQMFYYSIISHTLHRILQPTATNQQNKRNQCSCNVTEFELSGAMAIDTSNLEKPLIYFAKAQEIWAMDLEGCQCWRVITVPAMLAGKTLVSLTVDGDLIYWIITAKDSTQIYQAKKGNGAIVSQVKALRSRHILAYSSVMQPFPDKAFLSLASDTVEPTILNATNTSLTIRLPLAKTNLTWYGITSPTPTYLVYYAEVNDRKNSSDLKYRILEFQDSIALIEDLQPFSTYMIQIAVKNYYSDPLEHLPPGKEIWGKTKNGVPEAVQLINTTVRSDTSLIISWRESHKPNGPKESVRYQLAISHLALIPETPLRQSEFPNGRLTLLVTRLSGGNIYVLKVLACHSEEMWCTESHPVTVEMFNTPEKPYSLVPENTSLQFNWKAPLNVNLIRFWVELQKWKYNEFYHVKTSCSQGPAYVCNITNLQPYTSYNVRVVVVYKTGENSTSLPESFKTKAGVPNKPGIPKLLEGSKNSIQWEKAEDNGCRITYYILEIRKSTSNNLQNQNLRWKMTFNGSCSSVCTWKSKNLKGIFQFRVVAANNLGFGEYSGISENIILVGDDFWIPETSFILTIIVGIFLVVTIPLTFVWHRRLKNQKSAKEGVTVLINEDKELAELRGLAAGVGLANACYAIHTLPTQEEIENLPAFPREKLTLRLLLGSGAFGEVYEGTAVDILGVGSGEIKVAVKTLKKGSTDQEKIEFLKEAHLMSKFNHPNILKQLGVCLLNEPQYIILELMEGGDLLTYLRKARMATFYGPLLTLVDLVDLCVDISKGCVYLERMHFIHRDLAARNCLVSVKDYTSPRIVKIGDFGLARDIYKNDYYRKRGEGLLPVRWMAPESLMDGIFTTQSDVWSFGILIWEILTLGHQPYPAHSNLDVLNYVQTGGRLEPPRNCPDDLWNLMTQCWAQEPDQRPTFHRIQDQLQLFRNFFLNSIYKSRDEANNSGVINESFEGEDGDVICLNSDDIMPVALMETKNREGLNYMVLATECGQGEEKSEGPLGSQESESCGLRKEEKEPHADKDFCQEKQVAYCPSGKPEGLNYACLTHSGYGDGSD
UniProt P25098, sequence (whole entry, looked up): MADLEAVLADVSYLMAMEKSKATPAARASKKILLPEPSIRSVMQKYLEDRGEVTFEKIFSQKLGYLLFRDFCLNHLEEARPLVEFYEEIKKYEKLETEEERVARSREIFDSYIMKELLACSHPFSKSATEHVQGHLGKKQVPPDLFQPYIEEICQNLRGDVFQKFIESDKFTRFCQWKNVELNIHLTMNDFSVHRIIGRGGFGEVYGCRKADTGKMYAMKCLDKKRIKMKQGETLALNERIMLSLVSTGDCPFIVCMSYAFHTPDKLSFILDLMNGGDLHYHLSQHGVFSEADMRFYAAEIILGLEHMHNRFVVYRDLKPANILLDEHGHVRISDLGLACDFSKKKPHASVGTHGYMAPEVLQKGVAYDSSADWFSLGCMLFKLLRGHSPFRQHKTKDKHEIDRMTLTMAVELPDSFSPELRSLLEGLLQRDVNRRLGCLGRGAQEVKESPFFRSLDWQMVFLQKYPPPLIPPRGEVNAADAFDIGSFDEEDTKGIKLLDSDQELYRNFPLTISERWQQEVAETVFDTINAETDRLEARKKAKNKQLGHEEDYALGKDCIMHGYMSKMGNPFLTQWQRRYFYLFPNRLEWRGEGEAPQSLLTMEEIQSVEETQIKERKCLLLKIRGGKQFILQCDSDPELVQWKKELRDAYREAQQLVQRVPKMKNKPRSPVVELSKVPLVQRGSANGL

Sample 1 — effect on: enzyme activity; action: inhibitor; concentration: 0.5 µM; reference: control
Target: Tyrosine-protein kinase Fer (FER, Homo sapiens, UniProt P16591)
UniProt P16591, sequence (whole entry, looked up): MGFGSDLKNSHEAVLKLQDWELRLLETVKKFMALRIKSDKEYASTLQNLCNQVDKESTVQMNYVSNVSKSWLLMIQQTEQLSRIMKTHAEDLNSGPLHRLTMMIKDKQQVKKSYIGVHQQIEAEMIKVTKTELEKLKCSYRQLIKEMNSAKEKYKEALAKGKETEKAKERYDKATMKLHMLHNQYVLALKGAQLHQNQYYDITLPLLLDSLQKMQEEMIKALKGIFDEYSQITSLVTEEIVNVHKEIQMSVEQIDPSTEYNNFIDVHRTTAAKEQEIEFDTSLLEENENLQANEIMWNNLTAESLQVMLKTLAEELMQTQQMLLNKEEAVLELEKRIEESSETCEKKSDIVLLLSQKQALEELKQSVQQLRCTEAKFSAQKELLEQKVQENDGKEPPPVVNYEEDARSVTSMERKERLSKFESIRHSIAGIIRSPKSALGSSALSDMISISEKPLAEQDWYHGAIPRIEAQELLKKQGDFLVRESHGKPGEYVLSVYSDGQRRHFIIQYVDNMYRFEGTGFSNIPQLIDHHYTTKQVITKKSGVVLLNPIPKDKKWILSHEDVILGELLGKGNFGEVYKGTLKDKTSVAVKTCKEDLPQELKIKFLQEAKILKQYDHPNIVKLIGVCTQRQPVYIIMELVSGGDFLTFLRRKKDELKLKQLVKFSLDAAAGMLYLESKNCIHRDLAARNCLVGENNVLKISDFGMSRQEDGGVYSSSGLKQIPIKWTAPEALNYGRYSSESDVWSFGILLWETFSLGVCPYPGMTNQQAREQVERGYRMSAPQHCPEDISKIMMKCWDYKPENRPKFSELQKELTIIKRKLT
The remaining activity of `NC(=O)c1cccc(-c2cc(Nc3ccc(OC(F)(F)F)cc3)ncn2)c1` is reported as 105%.
`CCN(CC)CCCCN1c2ccccc2Oc2ccc(Cl)cc21` gave a remaining activity of 102%.
For `N#CC(c1ccnc(NCCc2cccnc2)n1)c1nc2ccccc2s1` (centres unmarked), the remaining activity was 91%.
`CCCCc1c(-c2ccc(O)cc2)[nH]c2nccnc12` has a remaining activity of 55.6%.
For `CNc1cc2c(Nc3cccc(Br)c3)ncnc2cn1`, the remaining activity was 97.1%.
`CC(C)n1cnc2c(Nc3cccc(Cl)c3)nc(NCCO)nc21` has a remaining activity of 79.5%.
`NC(=O)c1ccc(-c2nc(-c3ccc4c(c3)OCCO4)c(-c3ccccn3)[nH]2)cc1` gave a remaining activity of 93.3%.
With `CC(C)(C)c1nc2c3cc[nH]c(=O)c3c3cc(F)ccc3c2[nH]1` the remaining activity was 34%.
With `O=C(c1ccccc1)c1ccc(N2CCOCC2)cc1O` the remaining activity was 94.2%.
`Nc1nc(Nc2ccc(S(N)(=O)=O)cc2)nn1C(=S)Nc1c(F)cccc1F` has a remaining activity of 21.7%.
For `Clc1ccc(Nc2nnc(Cc3ccncc3)c3ccccc23)cc1`, the remaining activity was 91.4%.
With `O=Nc1c(-c2c(O)[nH]c3ccccc23)[nH]c2ccccc12` the remaining activity was 67.8%.
For `O=C(O)/C=C/c1cc(Br)c(Br)c(Br)c1Br`, the remaining activity was 96.6%.
With `c1cc(-c2cnn3cc(-c4ccc(OCCN5CCCCC5)cc4)cnc23)ccn1` the remaining activity was 93.3%.
`COc1cc2c(Nc3ccc(Br)cc3F)ncnc2cc1OCC1CCN(C)CC1` gave a remaining activity of 95.8%.
`O=c1c(-c2ccc(F)cc2)c(-c2ccncc2)[nH]n1-c1ccc(Cl)cc1` gave a remaining activity of 94.3%.
`N#C/C(=C(/N)SC1C=CC=CC1)c1cccc(C(O)c2ccncc2)c1` (centres unmarked) has a remaining activity of 94.2%.
`FC(F)(F)c1ccc(/C=C/c2nc(COc3ccc(CCCCn4ccnn4)cc3)co2)cc1` gave a remaining activity of 102%.
With `O=C1NC(=O)/C(=C/c2ccc3c(c2)OC(F)(F)O3)S1` the remaining activity was 97.2%.
The remaining activity of `O=C1c2ccccc2-c2nc3nnnn3nc21` is reported as 89.1%.
With `CC(C)N(CCC(=O)c1ccc2ccccc2c1)Cc1ccccc1` the remaining activity was 105%.

Sample 2 — species: mouse; matrix: microsomes or S9; concentration: 2 µM; time: 0.5 h
`CN(Cc1ccccc1)Cc1cc(=O)n2nc(-c3ccc(C(C)(C)C)cc3)nc2[nH]1` has a remaining compound of 60.4%.
`CC(C(=O)Nc1ccc2c(c1)CCC2)n1nc(-c2ccc3c(c2)OCCO3)ccc1=O` (centres unmarked) has a remaining compound of 6.84%.
With `CCCc1cc(N2CCN(C(=O)c3ccc(C#N)cc3F)CC2)nc2nnc(CC)n12` the remaining compound was 82.3%.
The remaining compound of `CCN1C(=O)CCC2(C(=O)NCCN(C)C3CCCCC3)CCCC=C12` (centres unmarked) is reported as 67.8%.
For `CCc1nc2n(n1)C1(CCCCC1)[C@@H]1CCCC[C@@H]1N2C(=O)CC(C)C`, the remaining compound was 0.154%.
For `Cc1cc(C)c(S(=O)(=O)N(C)C2(C)CCS(=O)(=O)C2)c(C)c1` (centres unmarked), the remaining compound was 0.747%.
The remaining compound of `Cc1n[nH]c(-n2ccc3nc4ccn(CCc5ccccc5)c(=O)c4cc3c2=O)n1` is reported as 62%.
`O=C1C(c2cnc3ccccc3c2)=C(c2cc(F)cc(F)c2)c2ccc(OCCN3CCS(=O)(=O)CC3)cc21` has a remaining compound of over 99.9%.
With `COc1cc(=O)n2c(c1C(=O)Nc1cccc(F)c1C)CCCC2` the remaining compound was 0.0819%.
The remaining compound of `Cc1nn(C)c2nc(NCC[C@@H]3CCCN4CCCC[C@H]34)sc12` is reported as 23.4%.
The remaining compound of `Cn1c(Cn2cc(-c3nnco3)ccc2=O)nc2cc(Cl)ccc21` is reported as 74%.
For `CCCn1c2c(c(O)c(C(=O)OCC)c1=O)CCCC2`, the remaining compound was 0.0434%.
`CCOC(OCC)c1cc2c(N)nc3ccccc3c2o1` gave a remaining compound of 0.0646%.
The remaining compound of `N#Cc1cccc(-n2c3ccccc3c3ccncc32)c1` is reported as 1.89%.

Sample 3 — effect on: enzyme activity; action: inhibitor; concentration: 1 µM
SMILES: CO[C@@H]1[C@H](N(C)C(=O)c2ccccc2)C[C@H]2O[C@]1(C)n1c3ccccc3c3c4c(c5c6ccccc6n2c5c31)C(=O)NC4
The inhibition was 56% (ROS1 (Homo sapiens, UniProt P08922)).
The inhibition was 68% (LATS2 (Homo sapiens, UniProt Q9NRM7)).
CAMK1 (Homo sapiens, UniProt Q14012) — inhibition: 39%.
It gave 8% for inhibition (MAP3K1 (Homo sapiens, UniProt Q13233)).
For GRK2 (Homo sapiens, UniProt P25098): inhibition read 23%.
IRAK3 (Homo sapiens, UniProt Q9Y616) — inhibition: 98%.
For CHEK2 (Homo sapiens, UniProt O96017): inhibition read 6%.

Other studies, line by line
For `CN(C)C(=O)/C(C#N)=C/c1ccc(-c2nc3cnc4c(ccn4C)c3n2C2CCCCC2)o1`, the viability was 111% (sample J colorectal tumour organoid; 0.1 µM; reference: DMSO).
For `CC[C@H](CC(=O)O)n1c(=O)c2ncccc2n(Cc2cn(C)c3cc(C)cc(C)c23)c1=O`, the inhibition was 5.71% (HTR5A (Homo sapiens, UniProt P47898); ligand displacement; 10 µM).

Repeated from above (sample 2):
`O=C1C(c2cnc3ccccc3c2)=C(c2cc(F)cc(F)c2)c2ccc(OCCN3CCS(=O)(=O)CC3)cc21` has a remaining compound of over 99.9%.
With `COc1cc(=O)n2c(c1C(=O)Nc1cccc(F)c1C)CCCC2` the remaining compound was 0.0819%.
The remaining compound of `Cc1nn(C)c2nc(NCC[C@@H]3CCCN4CCCC[C@H]34)sc12` is reported as 23.4%.
The remaining compound of `Cn1c(Cn2cc(-c3nnco3)ccc2=O)nc2cc(Cl)ccc21` is reported as 74%.
For `CCCn1c2c(c(O)c(C(=O)OCC)c1=O)CCCC2`, the remaining compound was 0.0434%.
